Experimental data pooled from the literature.
Numbered parts are unrelated; each lists some results of a single study.
Chain of UniProt O60674 (whole entry, looked up): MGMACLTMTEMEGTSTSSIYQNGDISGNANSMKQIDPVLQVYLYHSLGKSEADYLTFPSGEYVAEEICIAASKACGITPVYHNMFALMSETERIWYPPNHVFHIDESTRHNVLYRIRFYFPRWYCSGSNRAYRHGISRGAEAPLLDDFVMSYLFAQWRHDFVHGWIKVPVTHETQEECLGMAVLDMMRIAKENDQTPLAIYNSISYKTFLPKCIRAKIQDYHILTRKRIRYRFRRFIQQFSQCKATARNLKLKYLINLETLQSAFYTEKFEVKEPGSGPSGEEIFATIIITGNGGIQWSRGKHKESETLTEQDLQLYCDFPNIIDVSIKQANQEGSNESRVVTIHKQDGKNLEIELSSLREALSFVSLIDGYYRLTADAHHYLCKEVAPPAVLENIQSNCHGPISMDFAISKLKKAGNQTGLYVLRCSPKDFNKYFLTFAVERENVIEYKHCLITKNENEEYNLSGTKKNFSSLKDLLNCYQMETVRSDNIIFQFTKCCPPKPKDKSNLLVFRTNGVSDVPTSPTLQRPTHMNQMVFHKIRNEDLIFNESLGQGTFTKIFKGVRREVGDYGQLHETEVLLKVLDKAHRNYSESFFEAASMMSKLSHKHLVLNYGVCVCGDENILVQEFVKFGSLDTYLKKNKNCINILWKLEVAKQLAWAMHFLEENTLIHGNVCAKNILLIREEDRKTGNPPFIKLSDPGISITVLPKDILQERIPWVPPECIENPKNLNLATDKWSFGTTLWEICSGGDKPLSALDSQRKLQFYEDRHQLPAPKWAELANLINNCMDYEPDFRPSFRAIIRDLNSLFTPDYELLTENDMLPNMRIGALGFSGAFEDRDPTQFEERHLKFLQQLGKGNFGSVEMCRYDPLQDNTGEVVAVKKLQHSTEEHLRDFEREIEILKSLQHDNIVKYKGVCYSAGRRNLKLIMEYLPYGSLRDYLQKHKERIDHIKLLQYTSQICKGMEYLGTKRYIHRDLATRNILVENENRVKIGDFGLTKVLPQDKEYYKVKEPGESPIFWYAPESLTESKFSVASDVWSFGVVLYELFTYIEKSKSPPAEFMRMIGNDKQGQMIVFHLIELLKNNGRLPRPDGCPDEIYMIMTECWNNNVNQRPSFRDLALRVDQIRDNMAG
Chain of UniProt P49761 (whole entry, looked up): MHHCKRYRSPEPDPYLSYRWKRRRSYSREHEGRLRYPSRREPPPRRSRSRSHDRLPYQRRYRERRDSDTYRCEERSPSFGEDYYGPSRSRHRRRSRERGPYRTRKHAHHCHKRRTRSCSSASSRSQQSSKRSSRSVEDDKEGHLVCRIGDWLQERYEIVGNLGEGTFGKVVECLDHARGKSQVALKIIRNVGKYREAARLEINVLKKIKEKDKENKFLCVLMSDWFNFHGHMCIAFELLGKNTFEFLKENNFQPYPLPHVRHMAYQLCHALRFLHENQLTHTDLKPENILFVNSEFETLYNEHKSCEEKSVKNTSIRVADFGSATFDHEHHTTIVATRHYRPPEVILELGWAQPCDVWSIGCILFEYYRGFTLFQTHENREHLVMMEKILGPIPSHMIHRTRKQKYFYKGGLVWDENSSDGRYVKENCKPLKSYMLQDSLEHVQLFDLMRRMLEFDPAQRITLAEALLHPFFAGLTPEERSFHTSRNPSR
Chain of UniProt Q15418 (whole entry, looked up): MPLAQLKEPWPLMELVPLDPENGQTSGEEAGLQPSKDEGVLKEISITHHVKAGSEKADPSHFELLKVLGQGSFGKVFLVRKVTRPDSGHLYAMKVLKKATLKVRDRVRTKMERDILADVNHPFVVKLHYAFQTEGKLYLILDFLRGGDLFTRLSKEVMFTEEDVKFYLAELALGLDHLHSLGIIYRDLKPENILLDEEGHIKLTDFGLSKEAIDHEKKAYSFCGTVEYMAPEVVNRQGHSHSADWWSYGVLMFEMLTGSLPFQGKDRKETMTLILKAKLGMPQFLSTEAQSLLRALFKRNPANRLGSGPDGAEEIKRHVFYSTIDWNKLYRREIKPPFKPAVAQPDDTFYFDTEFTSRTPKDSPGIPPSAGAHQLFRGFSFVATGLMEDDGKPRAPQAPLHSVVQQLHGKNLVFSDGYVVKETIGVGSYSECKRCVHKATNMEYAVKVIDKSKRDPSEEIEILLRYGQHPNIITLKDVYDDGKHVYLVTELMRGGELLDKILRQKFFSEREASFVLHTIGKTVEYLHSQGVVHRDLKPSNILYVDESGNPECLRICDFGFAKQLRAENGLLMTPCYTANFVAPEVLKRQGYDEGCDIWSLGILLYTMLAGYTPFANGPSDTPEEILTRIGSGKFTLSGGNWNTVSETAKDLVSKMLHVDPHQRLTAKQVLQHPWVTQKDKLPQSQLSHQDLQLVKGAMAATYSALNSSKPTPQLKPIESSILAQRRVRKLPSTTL
Chain of UniProt Q13163 (whole entry, looked up): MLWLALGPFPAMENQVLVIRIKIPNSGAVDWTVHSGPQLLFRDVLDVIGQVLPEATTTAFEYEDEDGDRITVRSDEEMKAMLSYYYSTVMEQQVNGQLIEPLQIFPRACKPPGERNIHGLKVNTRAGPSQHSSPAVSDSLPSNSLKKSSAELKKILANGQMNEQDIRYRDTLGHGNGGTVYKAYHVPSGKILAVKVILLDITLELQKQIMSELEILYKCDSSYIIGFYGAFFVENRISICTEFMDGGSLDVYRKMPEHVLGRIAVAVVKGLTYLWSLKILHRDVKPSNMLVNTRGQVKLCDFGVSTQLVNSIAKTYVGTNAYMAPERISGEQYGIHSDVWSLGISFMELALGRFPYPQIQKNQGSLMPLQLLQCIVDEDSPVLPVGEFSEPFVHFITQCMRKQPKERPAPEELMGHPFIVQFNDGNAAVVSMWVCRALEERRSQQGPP
Chain of UniProt P49336 (whole entry, looked up): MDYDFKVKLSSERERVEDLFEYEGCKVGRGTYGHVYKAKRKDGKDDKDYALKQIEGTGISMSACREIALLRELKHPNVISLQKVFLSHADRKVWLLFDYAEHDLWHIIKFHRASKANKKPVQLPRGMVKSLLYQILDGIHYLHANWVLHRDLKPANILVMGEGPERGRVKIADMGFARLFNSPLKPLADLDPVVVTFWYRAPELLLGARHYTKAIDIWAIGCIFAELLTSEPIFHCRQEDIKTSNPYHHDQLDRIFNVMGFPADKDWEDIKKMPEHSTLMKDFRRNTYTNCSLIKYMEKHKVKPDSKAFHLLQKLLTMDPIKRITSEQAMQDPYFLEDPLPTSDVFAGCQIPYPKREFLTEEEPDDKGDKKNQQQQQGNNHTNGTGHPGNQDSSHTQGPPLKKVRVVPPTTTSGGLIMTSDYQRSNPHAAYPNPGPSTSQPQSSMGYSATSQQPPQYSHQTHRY

Set 1 — observed: enzyme activity; mode: inhibitor; tested at: 0.5 µM; relative to: control
Target: Serine/threonine-protein kinase MARK1 (MARK1, Homo sapiens, UniProt Q9P0L2)
Chain of UniProt Q9P0L2 (whole entry, looked up): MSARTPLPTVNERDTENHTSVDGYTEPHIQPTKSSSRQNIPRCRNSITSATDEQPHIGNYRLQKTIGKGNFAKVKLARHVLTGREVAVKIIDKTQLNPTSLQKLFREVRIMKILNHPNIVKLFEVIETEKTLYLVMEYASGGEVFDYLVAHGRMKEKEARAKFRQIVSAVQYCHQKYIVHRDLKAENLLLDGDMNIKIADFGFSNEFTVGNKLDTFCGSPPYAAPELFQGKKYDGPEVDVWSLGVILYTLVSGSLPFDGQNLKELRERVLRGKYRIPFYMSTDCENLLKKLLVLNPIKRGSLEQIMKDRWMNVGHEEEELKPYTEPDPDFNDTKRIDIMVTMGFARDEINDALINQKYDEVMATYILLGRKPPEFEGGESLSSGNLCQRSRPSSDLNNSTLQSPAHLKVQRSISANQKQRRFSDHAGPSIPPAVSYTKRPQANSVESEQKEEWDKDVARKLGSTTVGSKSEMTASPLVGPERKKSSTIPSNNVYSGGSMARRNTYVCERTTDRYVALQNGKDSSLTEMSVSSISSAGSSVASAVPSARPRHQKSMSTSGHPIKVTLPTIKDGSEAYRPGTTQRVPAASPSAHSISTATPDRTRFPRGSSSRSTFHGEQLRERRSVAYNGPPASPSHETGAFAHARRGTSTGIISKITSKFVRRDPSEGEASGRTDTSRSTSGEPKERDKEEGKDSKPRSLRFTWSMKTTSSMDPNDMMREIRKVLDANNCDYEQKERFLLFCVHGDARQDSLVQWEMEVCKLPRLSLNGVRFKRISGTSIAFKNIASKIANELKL
Structure (SMILES)	remaining activity
Oc1ccc(Nc2nc(-c3ccc(Cl)cc3)cs2)cc1	93.7%
CC#CC(=O)Nc1cc2c(Nc3ccc(F)c(Cl)c3)ncnc2cn1	98.2%
Cc1ccc(NC2=CC(=O)c3sc(C)nc3C2=O)cc1	89.6%
O=S(=O)(NCCNC/C=C/c1ccc(Br)cc1)c1cccc2cnccc12	91.2%
CC(C)(C)n1nc(Cc2cccc3ccccc23)c2c(N)ncnc21	95.8%
O=C1NC(=O)C(c2c[nH]c3ccccc23)=C1c1c[nH]c2ccccc12	90.6%
Nc1nc(Nc2ccc(S(N)(=O)=O)cc2)nn1C(=O)c1c(F)cccc1F	64.1%
O=C1Cc2c([nH]c3ccc([N+](=O)[O-])cc23)-c2ccccc2N1	62.5%
Cc1cc(Nc2nc(-c3ccccc3)nc3ccccc23)n[nH]1	93.7%
CC[n+]1c(/C=C/N(C)c2ccccc2)n(-c2ccccc2)c2ccc(-c3nc4ccccc4s3)cc21	104%
CCc1[nH]c(-c2ccc(OC)cc2)nc1-c1ccncc1	99.2%
Nc1nccc(-c2c(-c3ccc(F)cc3)ncn2C2CCNCC2)n1	97.9%
CC(=O)c1ccc(N2CCOCC2)cc1O	96.7%
CCCC(=O)Oc1ccc2[nH]c(C(=O)c3cc4ccccc4[nH]3)cc2c1	96.4%
Cc1cncc2cccc(S(=O)(=O)N3CCCN(C(=O)CN)C[C@@H]3C)c12	89.7%
COc1cc(Nc2c(C#N)cnc3cc(OCCCN4CCN(C)CC4)c(OC)cc23)c(Cl)cc1Cl	109%
Fc1ccc(-c2nc3n(c2-c2ccncc2)CCS3)cc1	102%
N#CC(=C(N)Sc1ccc(N)cc1)c1ccccc1C(F)(F)F	99.9%

Set 2 — observed: cell-free assay; method: competition with immobilised ligand; tested at: 1 µM
Compound: Cc1c(NC(=O)c2cc(C(N)=O)nc3cc(F)ccc23)c(C(F)(F)F)nn1Cc1ccc(C#N)cc1
target	remaining binding [%]
CLK3 (Homo sapiens, UniProt P49761)	100
Ribosomal protein S6 kinase alpha-1, C-terminal kinase domain (RPS6KA1, Homo sapiens, UniProt Q15418)	78
COQ8B (Homo sapiens, UniProt Q96D53)	80
TLK1 (Homo sapiens, UniProt Q9UKI8)	79
MAP3K9 (Homo sapiens, UniProt P80192)	100
RET (Homo sapiens, UniProt P07949, V804L)	100
MAP4K4 (Homo sapiens, UniProt O95819)	84
EPHB4 (Homo sapiens, UniProt P54760)	100
PAK4 (Homo sapiens, UniProt O96013)	98
EGFR (Homo sapiens, UniProt P00533)	100
RPS6KB1 (Homo sapiens, UniProt P23443)	80
CDK8 (Homo sapiens, UniProt P49336)	56
ULK3 (Homo sapiens, UniProt Q6PHR2)	74
PAK6 (Homo sapiens, UniProt Q9NQU5)	100
FYN (Homo sapiens, UniProt P06241)	94
BTK (Homo sapiens, UniProt Q06187)	70
MAP2K5 (Homo sapiens, UniProt Q13163)	88
Tyrosine-protein kinase JAK2, JH1 (JAK2, Homo sapiens, UniProt O60674)	75

Set 3 — Structure (SMILES): C=CCc1ccc(O)c(-c2cc(CC=C)ccc2O)c1; observed: chloride current; method: whole-cell voltage clamp
ANO1 del476-501: Anoctamin-1 (ANO1, Homo sapiens, UniProt Q5XXA6, del476-501)
Chain of UniProt Q5XXA6 (whole entry, unmodified, looked up): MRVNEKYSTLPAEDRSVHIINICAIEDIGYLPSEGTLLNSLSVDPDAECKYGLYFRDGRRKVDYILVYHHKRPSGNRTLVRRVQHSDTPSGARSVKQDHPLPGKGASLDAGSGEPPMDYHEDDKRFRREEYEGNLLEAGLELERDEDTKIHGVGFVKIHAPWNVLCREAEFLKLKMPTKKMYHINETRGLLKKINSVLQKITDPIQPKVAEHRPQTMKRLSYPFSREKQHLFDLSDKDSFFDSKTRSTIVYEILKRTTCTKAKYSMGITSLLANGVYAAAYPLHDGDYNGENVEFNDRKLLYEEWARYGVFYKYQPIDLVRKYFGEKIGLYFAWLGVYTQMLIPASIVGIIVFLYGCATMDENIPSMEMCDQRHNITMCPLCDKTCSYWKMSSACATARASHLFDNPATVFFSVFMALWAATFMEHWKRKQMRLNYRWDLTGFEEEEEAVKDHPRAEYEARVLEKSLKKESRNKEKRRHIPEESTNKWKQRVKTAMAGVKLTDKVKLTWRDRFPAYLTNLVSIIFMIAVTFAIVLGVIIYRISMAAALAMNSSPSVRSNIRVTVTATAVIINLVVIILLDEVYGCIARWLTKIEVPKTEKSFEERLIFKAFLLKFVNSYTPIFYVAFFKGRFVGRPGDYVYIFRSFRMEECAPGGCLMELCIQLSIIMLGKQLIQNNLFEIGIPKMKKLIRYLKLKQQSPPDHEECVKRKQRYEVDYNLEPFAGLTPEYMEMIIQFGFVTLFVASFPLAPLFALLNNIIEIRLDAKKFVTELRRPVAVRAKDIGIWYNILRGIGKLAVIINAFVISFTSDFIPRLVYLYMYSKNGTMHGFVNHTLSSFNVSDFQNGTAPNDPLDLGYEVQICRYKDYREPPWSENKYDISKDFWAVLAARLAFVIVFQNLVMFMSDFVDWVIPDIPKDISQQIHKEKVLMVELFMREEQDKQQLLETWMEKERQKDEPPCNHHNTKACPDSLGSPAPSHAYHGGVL
ANO1 del476-501/F623A: Anoctamin-1 (ANO1, Homo sapiens, UniProt Q5XXA6, del476-501/F623A)
target	test	conditions	IC50 [µM]
Anoctamin-1 (ANO1, Homo sapiens, UniProt Q5XXA6, del476-501/R541I)	inhibitor	R515I mutant at -100 mV	52.6
ANO1 del476-501		membrane voltage -20 mV, with: 300 nM Ca2+	18.9
Anoctamin-1 (ANO1, Homo sapiens, UniProt Q5XXA6, D383A/del476-501)		membrane voltage 20 mV	23.5
ANO1 del476-501		membrane voltage -60 mV, with: 300 nM Ca2+	22.7
ANO1 del476-501/F623A		membrane voltage -40 mV	41.5
Anoctamin-1 (ANO1, Homo sapiens, UniProt Q5XXA6, del476-501/R561A)		membrane voltage -80 mV	36.9
Anoctamin-1 (ANO1, Homo sapiens, UniProt Q5XXA6, del476-501/E649I)	inhibitor	E623I mutant at -40 mV	142
ANO1 del476-501		membrane voltage -40 mV, with: 300 nM Ca2+	19.3
ANO1 del476-501/F623A		membrane voltage -60 mV	47.5

Set 4 — species: mouse; medium: microsomes or S9; tested at: 2 µM; time: 0.5 h
SMILES	remaining compound [%]
CC(=O)c1cnc2c(C)c(-c3ccc(C)cc3)nn2c1C	0.199
COc1ccc(C2C(C(=O)Nc3ccccc3OC)CCC(=O)N2c2ccc3c(c2)OCO3)cc1 (stereo not shown)	35.8
COC(=O)c1cc(Br)c(=O)n(-c2nccs2)c1	0.451
OCCNc1nc(Nc2ccc(Cl)cc2)c2nc[nH]c2n1	8.04
COc1cc(=O)n(C)cc1C(=O)NCCOc1ccc(F)cc1	81.5
CC1=CC[C@H]2C(C)(C)[C@H](O)CC[C@]2(C)[C@H]1COc1ccc2ccc(=O)oc2c1	14
CNc1nc(NC(C)(C)C)nc(NC(C)(C)C)n1	5.17
Cc1cccc(OCC(O)Cn2nc(C)c3c(C)onc3c2=O)c1 (stereo not shown)	22.8
O=C(O)c1nn(-c2ccccc2)nc1-c1nn(-c2ccccc2)nc1C(=O)O	86.6
O=C(NNc1ncnc2[nH]cnc12)C1CCCCC1	84.4

A few entries again (set 2):
target	remaining binding [%]
EGFR (Homo sapiens, UniProt P00533)	100
RPS6KB1 (Homo sapiens, UniProt P23443)	80
CDK8 (Homo sapiens, UniProt P49336)	56
ULK3 (Homo sapiens, UniProt Q6PHR2)	74
PAK6 (Homo sapiens, UniProt Q9NQU5)	100
FYN (Homo sapiens, UniProt P06241)	94
